Experimental data from different studies.
Each line is one published result; not all experiments were run side by side. Several values in a cell are separate wells, animals, samples, runs or records. Numbers after ± are the reported error.
UniProt Q9Y2K6, sequence (whole entry, looked up): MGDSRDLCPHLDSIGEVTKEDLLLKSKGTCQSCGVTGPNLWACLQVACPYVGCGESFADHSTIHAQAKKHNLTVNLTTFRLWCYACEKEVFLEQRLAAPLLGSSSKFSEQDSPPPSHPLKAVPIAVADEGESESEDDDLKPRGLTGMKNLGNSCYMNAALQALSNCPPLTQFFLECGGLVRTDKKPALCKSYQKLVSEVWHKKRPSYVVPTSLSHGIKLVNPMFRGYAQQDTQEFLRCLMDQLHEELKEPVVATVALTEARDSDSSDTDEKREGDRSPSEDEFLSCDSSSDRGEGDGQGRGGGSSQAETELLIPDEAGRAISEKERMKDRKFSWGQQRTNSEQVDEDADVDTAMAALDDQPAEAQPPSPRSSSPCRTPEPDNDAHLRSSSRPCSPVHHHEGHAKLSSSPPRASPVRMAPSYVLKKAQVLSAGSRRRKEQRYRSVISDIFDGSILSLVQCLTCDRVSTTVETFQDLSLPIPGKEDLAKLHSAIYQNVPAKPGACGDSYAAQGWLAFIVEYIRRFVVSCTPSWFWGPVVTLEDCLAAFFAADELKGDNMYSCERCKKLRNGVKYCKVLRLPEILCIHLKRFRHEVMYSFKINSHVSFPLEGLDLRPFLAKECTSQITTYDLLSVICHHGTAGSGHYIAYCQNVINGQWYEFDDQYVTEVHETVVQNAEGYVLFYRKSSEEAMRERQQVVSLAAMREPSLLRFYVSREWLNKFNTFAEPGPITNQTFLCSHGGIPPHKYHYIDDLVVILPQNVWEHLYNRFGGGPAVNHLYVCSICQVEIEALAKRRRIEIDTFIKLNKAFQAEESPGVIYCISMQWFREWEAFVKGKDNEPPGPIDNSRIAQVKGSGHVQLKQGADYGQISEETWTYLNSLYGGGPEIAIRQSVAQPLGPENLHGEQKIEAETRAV
UniProt O14976, sequence (whole entry, looked up): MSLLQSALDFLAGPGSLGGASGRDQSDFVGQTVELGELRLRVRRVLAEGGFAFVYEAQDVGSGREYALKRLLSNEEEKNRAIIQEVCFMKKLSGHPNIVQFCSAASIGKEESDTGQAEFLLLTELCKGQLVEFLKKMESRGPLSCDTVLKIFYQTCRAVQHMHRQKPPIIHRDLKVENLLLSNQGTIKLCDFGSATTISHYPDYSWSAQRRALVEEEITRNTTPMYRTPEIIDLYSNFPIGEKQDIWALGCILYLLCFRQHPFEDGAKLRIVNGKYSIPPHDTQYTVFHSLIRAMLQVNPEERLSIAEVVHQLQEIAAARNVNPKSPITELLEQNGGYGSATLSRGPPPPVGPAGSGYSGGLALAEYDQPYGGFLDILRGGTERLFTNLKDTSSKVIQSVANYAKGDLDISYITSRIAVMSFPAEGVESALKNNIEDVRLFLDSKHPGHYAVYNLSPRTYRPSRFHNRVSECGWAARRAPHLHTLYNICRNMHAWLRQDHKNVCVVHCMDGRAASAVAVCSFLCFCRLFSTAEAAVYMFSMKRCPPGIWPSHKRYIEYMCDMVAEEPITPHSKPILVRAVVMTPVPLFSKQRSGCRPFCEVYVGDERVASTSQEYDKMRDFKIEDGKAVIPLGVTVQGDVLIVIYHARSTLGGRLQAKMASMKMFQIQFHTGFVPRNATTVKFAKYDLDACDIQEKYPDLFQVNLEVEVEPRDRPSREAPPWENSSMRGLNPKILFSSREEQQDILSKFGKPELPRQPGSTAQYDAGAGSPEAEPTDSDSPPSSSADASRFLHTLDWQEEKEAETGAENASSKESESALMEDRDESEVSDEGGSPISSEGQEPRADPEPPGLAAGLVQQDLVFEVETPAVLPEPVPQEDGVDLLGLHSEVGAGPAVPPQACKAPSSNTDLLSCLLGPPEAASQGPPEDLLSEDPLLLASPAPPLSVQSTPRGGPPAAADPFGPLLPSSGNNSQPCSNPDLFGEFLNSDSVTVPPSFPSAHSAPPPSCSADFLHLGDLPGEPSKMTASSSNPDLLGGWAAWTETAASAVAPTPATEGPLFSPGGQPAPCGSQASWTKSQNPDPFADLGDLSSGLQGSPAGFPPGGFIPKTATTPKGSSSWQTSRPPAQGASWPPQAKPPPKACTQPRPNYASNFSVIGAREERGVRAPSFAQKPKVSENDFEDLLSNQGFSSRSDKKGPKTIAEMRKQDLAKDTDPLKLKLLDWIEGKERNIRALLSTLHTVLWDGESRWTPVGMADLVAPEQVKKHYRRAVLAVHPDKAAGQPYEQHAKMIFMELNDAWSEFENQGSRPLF

Compound | target or system | assay | test system | setting | how to read | measurement | result
C[C@@H](NC(=O)c1ccc(C#Cc2cccc(F)c2)cn1)C(C)(C)O | rat cortical astrocytes | calcium mobilization | – | compound alone | reference: glutamate maximum | maximal response | 16 ± 0.8%
CC(C)C[C@@H](C=O)NC(=O)[C@H](CC(C)C)NC(=O)[C@H](CC(C)C)NC(=O)OCc1ccccc1 | HEK293 | item: CD4 signal peptide-FLuc reporter | – | concentration not given, 1 h, time-course chase, unit not given, with: cycloheximide | reference: untreated | FLuc activity | 0.983
CCn1cc(-c2cc(Cn3ccoc3=N)cc3c2CCN([C@@H](C)c2cc(OC)ccn2)C3=O)c(C(F)(F)F)n1 | TOV21G | cell growth, inhibitor | – | 120 h | – | EC50 | > 30 µM
O=C(O)c1ccc(Nc2ncc3c(n2)-c2ccc(Cl)cc2C(c2c(F)cccc2F)=NC3)cc1 | iCell Cardiomyocytes (hiPSC-derived) | cellular impedance | – | concentration not given, 24 h | reference: control | cell index | 99%
CCOC(=O)CSc1nc(-c2ccc(Cl)cc2)c2c(NC(=O)c3ccccc3)nnc-2[nH]1 | KM12 | SRB | – | 10 µM, NCI60 single-dose screen, colon cancer | reference: untreated | cell growth | 100%
O=c1[nH]cnc2c1ncn2[C@@H]1O[C@H](COP(=O)(O)OP(=O)(O)OP(=O)(O)O)[C@@H](O)[C@H]1O | – | binding, equilibrium dialysis LC-MS | – | 5 µM, thermostabilized A2AR-BRIL construct | reference: no-protein control, direction not given | z-scored log2 fold change | -2.21
COc1cc2ccnc(Cc3cccc(-c4ccccc4)c3)c2cc1OC | A549 | mitochondrial oxygen consumption, Seahorse XF96 | – | 10 µM | – | inhibition | 17%
Nc1ncnc2c1ncn2[C@@H]1O[C@H](CO)[C@@H](O)[C@H]1O | activated human T cells | item: adenine | – | 10 µM | reference: DMSO | log2 fold change | 0.5 and 0.66 and 0.374
COc1ccc(-n2nc(C(C)=O)s/c2=N\N=C(/C)c2ccc(NC(=O)c3ccc(Cl)cc3)cc2)cc1 | HepG2 | – | – | 10 µM | – | viability | 6.13%
CCC(C(=O)O)C(=O)O | – | binding, equilibrium dialysis LC-MS | – | 5 µM, thermostabilized A2AR-BRIL construct | reference: no-protein control, direction not given | z-scored log2 fold change | -0.195
Clc1nc(NCc2ccco2)c2[nH]cnc2n1 | FD iPSC-derived cardiomyocytes | alternative splicing, RNA-seq, item: CYB561D2 exon chr3(+):50352008-50352046 | – | unit not given | reference: DMSO minus compound | ΔPSI | -0.319
Cn1nnc2c(C(N)=O)ncn2c1=O | C6 rat glioma | live/dead staining | – | 1000 µM, 24 h | – | cells killed | ~50%
CCn1cc(-c2cc(Cn3ccnc3)cc3c2CCN([C@H](c2cc(OC)ccn2)C2CC2)C3=O)c(C(F)(F)F)n1 | MKN-74 | cell growth, inhibitor | – | 120 h | – | EC50 | > 30 µM
CCCCN1CCN(c2ccc3[nH]c(-c4ccc5[nH]c(-c6cc(OC)c(OC)c(OC)c6)nc5c4)nc3c2)CC1 | SK-MEL-2 | SRB | – | 10 µM, 48 h | – | growth percent | 83.8%
C[C@]12CC[C@@H]3c4ccc(O)cc4C[C@@H](CCCCCCCCC[S+]([O-])CCCC(F)(F)C(F)(F)F)[C@H]3[C@@H]1CC[C@@H]2O (stereo partly drawn) | MCF7/luciferase, wild type | cell proliferation | – | – | – | maximum inhibition | 79.1%
Cc1[nH]c(/C=C2\C(=O)Nc3ccc(F)cc32)c(C)c1C(=O)NC[C@H](O)CN1CCOCC1 | iCell Cardiomyocytes (hiPSC-derived) | xCELLigence Cardio impedance | – | concentration not given, 2 h | reference: control | beat amplitude | 107%
C[C@H](Nc1ccc2c(c1)OCCn1cc(N3C(=O)OC[C@H]3C(F)F)nc1-2)C(N)=O | Detroit 562 | CellTiter-Glo | – | 120 h | – | Hill coefficient GR curve | 0.636
COc1cnc2cccc(N3CCc4c(cc(Cn5ccnc5C)cc4-c4cn(C)nc4C(F)(F)F)C3=O)c2c1 | GP2d | cell growth, inhibitor | – | 120 h | – | EC50 | 17.3 µM
CC1(C)COc2ccc(F)cc2CN2c3nc4c(cnn4cc3OC[C@H]2C(F)F)C(=O)N1 | Ba/F3 EML4-ALK variant 1 S1206F | cell viability | – | – | – | Emax | 100%

Compound | target or system | assay | test system | setting | how to read | measurement | result
Cc1cc(Nc2ncc(Cl)c(Nc3ccccc3S(=O)(=O)C(C)C)n2)c(OC(C)C)cc1C1CCNCC1 | CLB-GE | phosphoproteomics LC-MS/MS, item: SLC20A2 phosphorylation | – | 200 nM, 60 min | reference: untreated | log2 fold change | -2.64
CCCCCCNC(=O)n1cc(F)c(=O)[nH]c1=O | SW-403 | LC-MS, item: Cer(d18:1/14:0) | – | 10 µM | – | ceramide level | 16.9 ± 0.37 pmol/mg protein
Cn1c(Nc2ccc(C(F)(F)F)cc2)nc2cc(Oc3ccnc(-c4ncc(C(F)(F)F)[nH]4)c3)ccc21 | iCell Cardiomyocytes (hiPSC-derived) | xCELLigence Cardio impedance | – | concentration not given, 2 h | reference: control | beat amplitude | 96.6%
COc1cc(-c2ccccc2)ncc1C(=O)Nc1ccc2c(=O)[nH]c(-c3ccc(C(C)(C)O)cc3)nc2c1 | Apc Q1405X mutant organoids | organoid viability, AlamarBlue | mouse small intestinal organoids | 6 days, Tnks genotype Tnks+/+ | – | Hill slope | -0.517
Clc1ccc(C2(c3ccc(-c4cn[nH]c4)cc3)CCNCC2)cc1 | SK-OV-3 | ATP | 3D gellan gum culture | 1 µM, 4 days | reference: untreated | relative cell number | 76.2%
C[C@H](NC(=O)C(=O)Nc1ccccc1C(C)(C)C)C(=O)N[C@@H](CC(=O)O)C(=O)COc1c(F)c(F)cc(F)c1F | EA.hy926 | apoptosis, CellTiter-Glo | – | concentration not given, with: TRAIL | – | viability | 83.2%
[Cl-].[Cl-].[Os+2].c1cnc2c(c1)ccc1cccnc12.c1cnc2c(c1)ccc1cccnc12.c1cnc2c(c1)ccc1cccnc12 | SK-MEL-28 | cell growth, SRB | – | green light 523 nm, normoxia | – | TGI | 49.3 µM
Cc1cc(Nc2ncc(Cl)c(Nc3ccccc3S(=O)(=O)C(C)C)n2)c(OC(C)C)cc1C1CCNCC1 | KARPAS-299 (NPM1-ALK) | cell viability | – | – | – | Emax | 78.6%
CCc1cnc(N2CCC(c3nc(COc4ccc(-n5cnnn5)cc4)cs3)CC2)nc1 | HEK-293T | RNA-seq GSEA, item: HALLMARK_KRAS_SIGNALING_DN | – | concentration not given | direction not given | normalized enrichment score | -0.923
O=C(O)c1ccc(-c2c[nH]c3ncc(-c4ccccc4)cc23)cc1C1CCCC1 | SK-OV-3 | ATP | 2D monolayer culture | 10 µM, 4 days | reference: untreated | relative cell number | 109%
CC[C@@H]1[C@H](F)C(=O)N[C@@H]1COc1nccc2cc(C(N)=O)c(OC)cc12 | Cyclin-G-associated kinase (GAK, Homo sapiens, UniProt O14976) | ATP-site probe binding, ActivX profiling | THP-1 cell lysate | 0.01 mM, Lys2 site | – | inhibition | 16.2%
O=C(/C=C/C=C/C=C/C1CCCCC1)NC1=C[C@@](O)(/C=C/C=C/C=C/C(=O)NC2=C(O)CCC2=O)[C@@H]2O[C@@H]2C1=O | SNU-407 | cell growth, CellTiter-Glo | – | 78 h | – | GI50 | 17.8 µM
Cc1nc(Nc2ncc(C(=O)Nc3c(C)cccc3Cl)s2)cc(N2CCN(CCO)CC2)n1 | iCell Cardiomyocytes (hiPSC-derived) | xCELLigence Cardio impedance | – | concentration not given, 2 h | reference: control | beat amplitude | 99.6%
O=C(/C=C/c1cccc(S(=O)(=O)Nc2ccccc2)c1)NO | differentiated THP-1 | – | – | 25 µg/mL | reference: untreated | IL-1β mRNA level | decreased
CCn1c(-c2nonc2N)nc2c(C#CC(C)(C)O)ncc(OC[C@H]3CCCNC3)c21 | iCell Cardiomyocytes (hiPSC-derived) | CellTiter-Glo | – | concentration not given, 24 h | reference: control | ATP level | 86.7%
OC1CCN(c2ccc(/C=N/NC(=S)NCc3ccccc3)cc2)CC1 | BEAS-2B and A549 | MTT | – | – | reference: IC50 BEAS-2B over IC50 A549 | selectivity ratio | 3
C[C@]12CCCN1CC1=NNC(=O)c3cc(F)cc4[nH]c2c1c34 | Hs746T | – | – | with: temozolomide | – | EC50 | > 10 µM
C[C@H]1CN(C2COC2)CCN1c1ccc(Nc2cc(-c3ccnc(N4CCn5c(cc6c5CC(C)(C)C6)C4=O)c3CO)cn(C)c2=O)nc1 | Ramos | calcium flux, FLIPR | – | 1 h preincubation | – | IC50 | 0.00495 µM
Cn1cc(Nc2nccc(-c3ccc4c(c3)CN(C3COC3)CC[C@H]4NC(=O)c3cn(C(C)(C)C)nn3)n2)cn1 | mouse splenic B cells | item: p70S6K signalling | – | 30 mg/kg, IgD-activated in vivo | reference: vehicle, direction not given | pathway activation z-score | 3.15

Compound | target or system | assay | test system | setting | how to read | measurement | result
C=C(c1ccc(OC)cc1)[C@@H]1c2cc(Oc3cc(C[C@H]4c5cc(OC)c(OC)cc5CCN4C)ccc3O)c(OC)cc2CCN1C | 3T3-L1 | adipocyte lipid accumulation, Nile Red staining | – | 5 µM | – | inhibition | 22.6 ± 1.1%
CC(C)NCC(O)c1ccc(O)c(O)c1 (stereo not drawn) | mouse ventricular cardiomyocytes | – | – | dose not given, 0.211 s | – | sarcomere length | 1.76 µm
Nc1cccc2c1C(=O)N(C1CCC(=O)NC1=O)C2=O (stereo not drawn) | RPMI-8226 | flow cytometry, item: CD212 | – | concentration not given | reference: comparator compound alone | surface marker level | 333%
CCCCN1C[C@H](O)[C@@H](O)[C@@H](O)[C@H]1CO | sample J patient fibroblasts | GlcCer level lowering, LC-MS/MS, item: GlcCer d18:1/24:1 | – | 216 h | – | IC50 | 70.1 µM
NC(N)=NN=C(C=Cc1ccc([N+](=O)[O-])o1)C=Cc1ccc([N+](=O)[O-])o1 | ARPE-19 HiBiT fibulin-3 | HiBiT luminescence | – | 1.66 µM | – | fibulin-3 level | -47%
Cc1ccc(F)c(NC(=O)Nc2ccc(-c3cccc4[nH]nc(N)c34)cc2)c1 | iCell Cardiomyocytes (hiPSC-derived) | xCELLigence Cardio impedance | – | concentration not given, 2 h | reference: control | beat amplitude | 99.4%
C=Cc1c2[n-]c(c1C)/C=c1\[n-]/c(c(C)c1C=C)=C\c1[n-]c(c(CCC(=O)O)c1C)/C=c1\[n-]c(c(C)c1CCC(=O)O)=C2.[Sn+4] | SH-SY5Y | RNA-seq, item: SPHK1 mRNA | – | 5 µM, 5 h | reference: untreated cells | fold change | 2.53
Cn1cc(-c2ccc(-c3cncc(Cl)c3N3CCC4(CCNC4=O)CC3)cc2)cn1 | COLO 205 | gene expression, microarray, item: ULBP1 mRNA | – | concentration not given, 2 h | reference: untreated cells | log2 fold change | 4.92
CNC(=O)c1ccccc1Sc1ccc2c(/C=C/c3ccccn3)n[nH]c2c1 | iCell Cardiomyocytes (hiPSC-derived) | xCELLigence Cardio impedance | – | concentration not given, 2 h | reference: control | beat amplitude | 104%
COc1cc2ncnc(Cc3cccc(-c4cccc(CO)c4)c3)c2cc1OC | A549 | mitochondrial oxygen consumption, Seahorse XF96 | – | 10 µM | – | inhibition | 20%
C=CC(=O)N1CCC[C@@H](n2nc(-c3ccc(Oc4ccccc4)cc3)c3c(N)ncnc32)C1 | Ramos | calcium flux, FLIPR | – | – | – | maximal inhibition | ≤ 90%
Cn1cc(-c2ccc(F)c(C(F)(F)F)c2)nc1C1CCN(c2ncnc3[nH]ncc23)CC1 | SK-OV-3 | ATP | – | 0.1 µM, 4 days, 3D U-bottom low-attachment | reference: untreated | relative cell number | 114%
COc1ccc2c(N(C)c3ccc(/C(C)=N/OCCN)cc3)c3c(Cl)coc3nc2c1 | LNCaP C-81 | MTT | – | 1 µM, 72 h, steroid-reduced medium | – | viability reduction | ≥ 50%
CC/C(=N\NC(=O)NCc1cccc(O)c1)c1ccc(O)c(C)c1O | SK-OV-3 | Western blot, item: YAP | – | 1 µM, 1 h, 3D culture, gellan gum, unit not given | reference: β-actin | protein level | 1.09 ± 0.24
CCCCN1CCN(c2ccc3[nH]c(-c4ccc5[nH]c(-c6ccc(OCC)cc6)nc5c4)nc3c2)CC1 | NCI/ADR-RES | cell growth, NCI-60 SRB | – | 10 µM, 48 h | – | growth percent | 87.8%
CC#CC(=O)N1CCC[C@H]1c1nc(-c2ccc(C(=O)Nc3ccccn3)cc2)c2c(N)nccn12 | TMD8 RAC2 knockout | calcium flux, FLIPR | – | concentration not given, 2 h preincubation | – | inhibition | 98.4%
CN1CCN(c2ccc3nc(-c4c(N)c5c(F)cccc5[nH]c4=O)[nH]c3c2)CC1 | iCell Cardiomyocytes (hiPSC-derived) | xCELLigence Cardio impedance | – | concentration not given, 2 h | reference: control | beat amplitude | 102%
C=CC(=O)N1CCC[C@@H](c2ccc(C(N)=O)c3[nH]ccc23)C1 | TMD8 RAC2 knockout | calcium flux, FLIPR | – | 1 h preincubation | – | IC50 | 0.068 µM
O=C(O)CCn1c(=O)oc2ccccc21 | Ubiquitin carboxyl-terminal hydrolase 20, ZnF-UBD domain (USP20, Homo sapiens, UniProt Q9Y2K6) | – | – | – | – | Kd | > 1000 µM

Excerpt of the above:
Compound | target or system | assay | test system | setting | how to read | measurement | result
CNC(=O)c1ccccc1Sc1ccc2c(/C=C/c3ccccn3)n[nH]c2c1 | iCell Cardiomyocytes (hiPSC-derived) | xCELLigence Cardio impedance | – | concentration not given, 2 h | reference: control | beat amplitude | 104%
COc1ccc2c(N(C)c3ccc(/C(C)=N/OCCN)cc3)c3c(Cl)coc3nc2c1 | LNCaP C-81 | MTT | – | 1 µM, 72 h, steroid-reduced medium | – | viability reduction | ≥ 50%
Cc1ccc(F)c(NC(=O)Nc2ccc(-c3cccc4[nH]nc(N)c34)cc2)c1 | iCell Cardiomyocytes (hiPSC-derived) | xCELLigence Cardio impedance | – | concentration not given, 2 h | reference: control | beat amplitude | 99.4%
C[C@H](Nc1ccc2c(c1)OCCn1cc(N3C(=O)OC[C@H]3C(F)F)nc1-2)C(N)=O | Detroit 562 | CellTiter-Glo | – | 120 h | – | Hill coefficient GR curve | 0.636
